Assay results from different studies.
Numbered parts are unrelated; each lists some results of a single study.

Series 1 — technique: RNA Bind-n-Seq; form: RNA; medium: in vitro; tested at: 1 µM; notes: whole 134-nt RNA, ends assumed; together with: 150 mM KCl; baseline: input library; reading: higher = stronger binding; endpoint: log2 enrichment
Target: Ras GTPase-activating protein-binding protein 1, C-terminal RGG region (G3BP1, Homo sapiens, UniProt Q13283)
UniProt Q13283, sequence (whole entry, looked up): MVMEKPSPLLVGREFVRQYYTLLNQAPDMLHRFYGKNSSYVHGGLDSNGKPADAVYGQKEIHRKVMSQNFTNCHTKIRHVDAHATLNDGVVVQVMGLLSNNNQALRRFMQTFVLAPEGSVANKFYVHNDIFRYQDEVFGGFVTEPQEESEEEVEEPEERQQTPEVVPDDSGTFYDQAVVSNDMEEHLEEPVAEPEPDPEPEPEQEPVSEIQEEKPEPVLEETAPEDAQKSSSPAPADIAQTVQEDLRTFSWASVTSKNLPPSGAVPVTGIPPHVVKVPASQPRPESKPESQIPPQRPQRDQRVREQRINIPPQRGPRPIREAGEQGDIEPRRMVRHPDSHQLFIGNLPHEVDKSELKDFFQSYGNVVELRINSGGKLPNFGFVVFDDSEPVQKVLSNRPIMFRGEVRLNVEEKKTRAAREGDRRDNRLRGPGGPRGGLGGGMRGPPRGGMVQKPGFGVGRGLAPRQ
All sequences stand within: GGGAGUUCUACAGUCCGACGAUC … UGGAAUUCUCGGGUGUCAAGG
GUGCUACACAUCGUAUGUACCGAAUCGGGGUUUUUUUGGGGUUUUUUUGGGGUUUUUUUGGGGAAAGUAUUAUGUUACGCCGUUCGGAUC: 0.134
UCAAGUCCUGUGCUACACAUCGUAUGUACCGAAUCGGGUUUGGGGUUUGGUUUGGAAAGUAUUAUGUUACGCCGUUCGGAUCUGCACUUC: -0.913
AGUCCUGUGCUACACAUCGUAUGUACCGAAUCGGGGCCCCGGCCCCGGGGCCCCGGGAAAGUAUUAUGUUACGCCGUUCGGAUCUGCACU: -2.89
CUCAAGUCCUGUGCUACACAUCGUAUGUACCGAAUCGGAAAAAGGUGGAAAGGAAAGUAUUAUGUUACGCCGUUCGGAUCUGCACUUCCA: -1.28
UGAAUGCUGAGAAUGUUGCUGGUCACCAGAUUGCCUCUGAAACACAGAUCCUUGAGGGCUCUUUGGGAAUAUCUGUAAAGUCACACUGCA: -0.411
AGUCCUGUGCUACACAUCGUAUGUACCGAAUCGGCCCCCGGCCCCCGGCCCCCGGGGAAAGUAUUAUGUUACGCCGUUCGGAUCUGCACU: -1.61
AGUCCUGUGCUACACAUCGUAUGUACCGAAUCGGUUUUUGGUUUUUGGGGUUUUUGGGAAAGUAUUAUGUUACGCCGUUCGGAUCUGCAC: -1.38
CACAGACAACACGCACCCACACAGACACAGAGGGAAGGGGAAAGGAUGGGGACAGGGUGCACAGCAGGGCGGGGUAGGACCCCAGCCCCU: -0.296
CUCAAGUCCUGUGCUACACAUCGUAUGUACCGAAUCGGGAAGGGGAAGGAAGGAAAGUAUUAUGUUACGCCGUUCGGAUCUGCACUUCCA: -1.27
GUCCUGUGCUACACAUCGUAUGUACCGAAUCGGGUUUUUUUGGGUGGGAAAAAAAGGGAAAGUAUUAUGUUACGCCGUUCGGAUCUGCAC: -0.463
CUCAAGUCCUGUGCUACACAUCGUAUGUACCGAAUCGGAAAAAGGAAAGGUGGAAAGUAUUAUGUUACGCCGUUCGGAUCUGCACUUCCA: -1.4
ACCAUGCAGGUGGGCAUCUUUGGGAAGUGGGGCAAGGGGGGGAUAGGGAGGGGGAAAACACUUUGGGAACAGGUGGUCCCAGGUCGUUUC: -1
UAACUUUAGAGGAGGAUCUGAUGGAUAUGGCAGUGGACGUGGAUUUGGGGAUGGCUAUAAUGGGUAUGGAGGAGGACUUGGAGGUGGCAA: -0.225
AAGUCCUGUGCUACACAUCGUAUGUACCGAAUCGGGGUUUGGGGAAAGGGGUGGGGAAAGUAUUAUGUUACGCCGUUCGGAUCUGCACUU: 2.7

Series 2 — technique: protein-binding microarray; form: double-stranded DNA, one strand shown; medium: in vitro; tested at: not given; reading: higher = stronger binding; endpoint: E-score
Target: Protein max, full length (MAX, Homo sapiens, UniProt P61244-2, residues 1-151)
Notes: k-mer, scored over probes, only values ≥0.25
CAACGTGC: 0.467
CGTGGTAA: 0.39
AACCACGG: 0.253
ACCCGTGG: 0.27
TGCGTACA: 0.288
CACGCTCG: 0.401
GACACGCC: 0.364
ACACGCAA: 0.262
ACAGCATG: 0.45
ATGTGTCC: 0.37
ACTGCACG: 0.325
AATAGCAT: 0.271
ATGCCGCA: 0.3
GACCCGCC: 0.275
CGCCGCGC: 0.308
CCCACGAG: 0.415

Series 3 — technique: universal PBM; form: double-stranded DNA, one strand shown; medium: in vitro; tested at: not given; reading: higher = stronger binding; endpoint: E-score
Target: Sal-like protein 4, full length isoform B (SALL4, Homo sapiens, UniProt Q9UJQ4-2, residues 1-616)
Notes: 8-mer, flanks averaged, mean of replicates
AAGGGCAC: -0.187
ATTCCTTG: 0.0306
TAAGACTA: 0.161
AAACAAAC: 0.137
ATGCTGTA: 0.128
GTGACGCA: -0.155
AGATTCGG: 0.00837
ATATCTCG: 0.311
GGGGAACC: -0.278
GAACATAC: 0.161
GCCCCCCC: -0.395
TCCATTAA: 0.277
CACGCGAG: -0.241
CCCGGAGG: -0.422
CGTTCAAC: 0.0656
GGCGCAGA: -0.238
AAGGTAAG: 0.0966
ATGGTTCC: -0.046
CTGCTACC: -0.0264
CCATTCAG: 0.0676
CCGGGGGC: -0.37
AGCTCCTG: -0.193
CGAGGCTC: -0.334
AGAGTTAC: 0.0475
TGAGGCAA: -0.00354

Series 4 — technique: RNAcompete; form: RNA; medium: in vitro; tested at: 20 nM; notes: 7-mer, probes averaged, single round; baseline: mean of 7-mers; reading: higher = stronger binding; endpoint: 7-mer Z-score
Target: PABPC1L2, full length, GST fusion (mouse, UniProt A0ABA7IW68)
Construct (chain): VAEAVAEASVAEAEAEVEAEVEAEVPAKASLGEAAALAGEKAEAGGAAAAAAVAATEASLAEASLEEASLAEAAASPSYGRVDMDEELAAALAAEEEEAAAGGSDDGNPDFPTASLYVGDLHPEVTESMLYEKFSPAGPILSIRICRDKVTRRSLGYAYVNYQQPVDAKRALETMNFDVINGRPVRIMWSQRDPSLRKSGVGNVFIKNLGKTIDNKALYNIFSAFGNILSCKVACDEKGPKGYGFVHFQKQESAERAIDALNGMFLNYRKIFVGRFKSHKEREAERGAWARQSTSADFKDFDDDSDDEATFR
GUCCGAG: -0.204
AAACCGC: 0.476
UCCUAUU: -0.418
ACAUGAA: 0.234
GAGGACG: 0.309
AUGAGGA: 0.115
CCCACAA: -0.295
GAAUCGA: -0.0138
CGUCGCU: -0.512
UCGCCCA: -0.436
CUCUGCC: -0.427
UAUACUU: -0.188
AACCCUU: -0.24
UCGCCCU: -0.421
UACAAAC: 1.04
CCAACUG: -0.175
UAUACAG: 0.00979
AGUGAAU: -0.0518
UCGCACG: -0.362
UCGAAGC: -0.11
GAGCUCC: -0.387
UAAGGCG: 0.0352
AGAAGAC: 0.133
UAAAUUA: 0.86

Series 5 — technique: protein binding microarray; form: double-stranded DNA, one strand shown; medium: in vitro; tested at: not given; baseline: not given; reading: higher = stronger binding; endpoint: E-score
Target: Histone acetyltransferase KAT6A, both winged helices, GST fusion (KAT6A, Homo sapiens, UniProt Q92794, residues 1-181)
Notes: 8-mer, flanks averaged, mean of 2 arrays, mostly near background
Target sequence (chain): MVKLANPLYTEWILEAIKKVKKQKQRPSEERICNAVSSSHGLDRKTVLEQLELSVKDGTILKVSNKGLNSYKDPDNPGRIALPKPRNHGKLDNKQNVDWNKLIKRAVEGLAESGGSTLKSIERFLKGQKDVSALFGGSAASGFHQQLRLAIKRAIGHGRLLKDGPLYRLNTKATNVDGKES
ATTCGGTG: -0.135
CCCTGCTC: -0.252
GCTGCCCA: -0.0275
CAGGGCGG: 0.119
CAGAGGCG: 0.0352
AGGACCCA: -0.243
ATCTAGGC: -0.0711
ACACGGCT: 0.241
CACTTATG: -0.0872
ACCCAACA: -0.159
ATCTCCTG: -0.201
TATGGTCA: -0.22
AAGTGGCC: -0.127
CGCGTCTC: 0.278
AGACCGGA: 0.0633
TCACCACA: -0.135
AGGATGCG: -0.075
ACTGGGTC: -0.194

Series 6 — technique: RNA Bind-n-Seq; form: RNA; medium: in vitro; tested at: 365 nM; baseline: no-protein control; reading: higher = stronger binding; endpoint: RBNS enrichment (R)
Target: RNA binding protein fox-1 homolog 2, RRM domain, GST-SBP tag (RBFOX2, Homo sapiens, UniProt O43251-10, residues 100-194)
Notes: natural RNA segment, single round, ends assumed
All sequences stand within: GGGAGUUCUACAGUCCGACGAUC … UGGAAUUCUCGGGUGCCAA
Target sequence (chain): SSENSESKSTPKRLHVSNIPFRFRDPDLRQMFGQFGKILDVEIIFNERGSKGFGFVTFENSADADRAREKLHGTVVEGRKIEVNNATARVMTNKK
AGGGGCUCUCUAAGCUGCACUGUUGUGGCUUUGUCUAAAAUUUUAAUGACGUUUCUGAGAACCAUGUUCUUUUUAUACUAAAAUCUGGGGAUGGGAGGGCUCAUUUGUUG: 0.648
AAAGUAAACAGGCCAGAUGAACCUGAGGGAUAAUAGAUUACAAAGAAUAUAUUUUUGUUAUGGCUGGUUACCCCAGCUCUUUUUCCCCUUGUGUGUGUGGUUCAAGUGUG: 0.473
UGGCUCUUACACCCAUUCCAAAUGCAGUUUAUUUUUAGACCCGAUUGCAAAUAGUGAUGUAGUUUUAACCAGUAUGGAUUAGUUCAGGGAUGAACUGCUCCCUCUAGCCU: 0.312
ACUGAAUCUUCUCUCAGAGGGAGAUGAGCAAUUGUCAGUCAGGAUAAUUCUGUUUGCUAAAUGUUGCCUUUAUGCUUUCAAACUGAAUUAAACCCAUUGUGAGGUUGACA: 0.601
UGUUGAAAAAUCUGUGAAGAACAUAGUAAGUUAAGGUUUUCCAACUUGGAAAAAUGUACAUGAUGUGAAACUGGGGUGCUAUGUUAAAAAUAAAUGUAUGAUAACUCAUG: 0.331
AGUCCUGCAUCUUCUGUGUAGUAACAGGGUCCUUCGGGCUCCACAGUCAGUGCAGGUGGCUAGUCAUGUGUACUUCUGAUUGACCAAAUAGCACAUGUGUGGAAACACCC: 0.431
AGGGGGUCUCAGGGCAGCAGCAUACAAGGUGGCAGCGGGUAACCCUGCCUUGUUCUGUCAUCCAGGGCUCCUUUGCUGCCCCGUUCUGUCACCCAGGGCUCCUAGGGGGA: 0.423
AUGGGAACGUGAAAUAUUGGUGCGAUCACUGAACCAAAGGGAUUGUGUUCUGUGACUUUGGUACUUUGUUUUGCAUUUUUGUUUCAUAUUAAAUACUUUCUUUCUGUUUG: 1.3
AUGACAGCUGAUGUUAAACUUUUCAUAUUUCAAAUUAGAUUCCCUAGGAGGUAUAAUAUAUAUUUCUUGAGUAAUAAUGUGGUUACGGAAUUCCAAUGUUAUAGUGAAGU: 1.02
GCUGUGUAAGAGAGACUGGUCCGUGGGACCAGCCACACACAUUACCUCUUCCACUUGAAAUGACUCUAAGGUUUUCAUUUUAUUCAAGCUUUGUGGGACAGACAAACUUU: 0.295
UCUACCCAUUGGCUCAAGCAGAAAUCUGGAAGUCAUCUUUGACUCCUUCCUCUCCCUCCUGAUAAACAUCUAAGCAGUUUCUAAGUCUAGUUUUACCUCUUAAAUAUCUC: 0.46
GGCAUGACUCUGCCAUGGUGUCACAGGCAUCUUGAUCAUGUCUUGACCAUAGAAUUGCUCUCUAGGAGCUGGGCAUGGUGACCUACGUCUGUAUUCUCAGCACUCAGGAG: 0.286

A few entries again (series 3):
ATATCTCG: 0.311
AGCTCCTG: -0.193
AAGGTAAG: 0.0966
ATGCTGTA: 0.128
GAACATAC: 0.161
CCGGGGGC: -0.37
CGTTCAAC: 0.0656
ATTCCTTG: 0.0306
CTGCTACC: -0.0264
GGGGAACC: -0.278
AAGGGCAC: -0.187
